Measured values pooled from the literature.
Protocols differ between the studies behind these lines. Numbers after ± are the reported error.
Cell line: PC-3

SMILES | effect on | method | time | setting | IC50
Cc1nc(N(C)c2ccc3c(c2)/C(=C/c2ccccc2C)C(=O)N3C)c2ccccc2n1 | cell growth or viability | MTT | – | – | 4.59 µM
C#CC[C@]1(O)C[C@H](C)N2CCc3cc(OCc4cc(C)cc(C)c4)c(OCc4cc(C)cc(C)c4)cc3[C@@H]2C1 (relative stereo) | cell growth or viability | MTT | – | – | 0.478 µM
CNC[C@H](O)c1cccc(OCCOCCOCCOCC#Cc2cccc(Cn3c(-c4ccccc4)c(-c4ccccc4)c4c(=N)n([C@H]5CC[C@H](O)CC5)cnc43)c2)c1 | cell growth or viability | CCK-8 | – | – | 3.27 µM
COc1ccccc1/C=C1\C(=O)N(C)c2ccc(Nc3nc(C)nc4ccccc34)cc21 | cell growth or viability | MTT | – | – | 30.4 µM
Cc1cc(C)cc(COc2cc3c(cc2OCc2cc(C)cc(C)c2)[C@H]2C[C@@](O)(Cc4cn(Cc5ccc(F)cc5)nn4)C[C@@H](C)N2CC3)c1 | cell growth or viability | MTT | – | – | 0.126 µM
[BH3-][P+]1(C2CCCCC2)CCCCC1 | cell growth or viability | MTT | 72 h | – | > 100 µM
CC(=O)[O][Pt]([NH2])([NH2])([Cl])([Cl])[O]C(=O)CCC(C)C1CCC2C3CCC4CC(O)CCC4(C)C3CCC12C (stereo not shown) | cell growth or viability | MTT | – | – | 2.7 µM
C[n+]1c(/C=C/c2ccc(N(c3ccccc3)c3ccccc3)cc2)cc(/C=C2\Sc3ccccc3N2CCCN2CCCC2)c2ccccc21 | cell growth or viability | MTT | 36 h | – | 6.41 µM
Cc1nc(Nc2ccc3c(c2)/C(=C/c2ccccc2Cl)C(=O)N3C)c2ccccc2n1 | cell growth or viability | MTT | – | – | 27.6 µM
CNC[C@H](O)c1cccc(O)c1 | cell growth or viability | CCK-8 | – | – | > 200 µM
OCC1OC(Nc2cc3cccnc3c3ncccc23)C(O)C(O)C1O (stereo not shown) | cell growth or viability | MTT | 48 h | dark | 1.7 µM
O=C1c2ccc3c4ccc5c6c(ccc(c7ccc(c2c37)C(=O)N1CCN1CCCCC1)c64)C(=O)N(CCN1CCCCC1)C5=O | cell growth or viability | SRB | 72 h | – | 91.5 µM
O=[P@]1(c2ccccc2)CC[C@@H](O)CC1 | cell growth or viability | MTT | 72 h | – | > 100 µM
Cc1cc(C)cc(COc2cc3c(cc2OCc2cc(C)cc(C)c2)C2CC(O)CC(C)N2CC3)c1 (stereo not shown) | cell growth or viability | MTT | – | – | 0.57 µM
[BH3-][P+]1(c2ccccc2)CCCCC1 | cell viability | MTT | 72 h | – | 36.7 ± 4.08 µM
CC(C)c1ccc(N(C)c2ccc3c(c2)OCC[C@H]3CNc2cnccc2C(=O)O)cc1 | cell growth or viability | ATP luminescence | 7 days | – | 0.0145 µM
